Assay results pooled from the literature.
Parts stem from different laboratories: compare values within a part only. ± marks the error that the study gave.

Series 1 — organism: SARS-CoV-2 Wuhan spike VSV pseudovirus; effect on: pseudovirus entry; tested at: 10 µM; endpoint: inhibition
Cc1nc2c(c(=O)n1C)CCN(Cc1ccc(Sc3nncn3C)o1)CC2: 100%
CN(C)c1ccc(C(=C2C=CC(=[N+](C)C)C=C2)c2ccc(N(C)C)cc2)cc1: 47%
Cc1ccc(C)c(N2CCN(C(=O)CCCn3cnc4cc(S(=O)(=O)N(C)C)ccc43)CC2)c1: 74%
CC1CCCCN1Cc1c(O)ccc2cc(-c3nc4ccccc4s3)c(=O)oc12 (stereo not shown): 67%
Cc1cccn2cc(C(=O)N3CCCCC3CCc3ccccn3)nc12 (stereo not shown): 100%
Cc1ccc(N2N=C(C(=O)NCc3ccccc3F)S(=O)(=O)c3cccnc32)cc1: 82%
Cc1cccc(-c2nccc(Nc3ccc(C(=O)N4CCN(Cc5ccccc5)CC4)cc3)n2)c1: 56%
CCOC(=O)c1cnc(S/C=C/C(=O)c2ccc(C)cc2)nc1N: 75%
C=CCN(Cc1ccccc1OCC)C(=O)c1c(C)nc2ncccn12: 99%
CC(C)N(Cc1ccccc1)C(=O)Cn1ncc(Br)c(Br)c1=O: 100%
CN(C)c1ccc2nc3ccc(N(C)C)cc3[s+]c2c1: 80%
CC(C)(O)C#Cc1ccc(CN2CCCC(CCC(=O)N3CCOCC3)C2)s1 (stereo not shown): 84%
CCOc1ncccc1C(=O)Nc1ccc(C)cc1S(=O)(=O)N(CC)CC: 99%
O=C(Nc1ccccc1)c1nc(S(=O)(=O)Cc2ccc(F)cc2)ncc1Cl: 56%

Other studies, line by line
rep papain-like protease: Replicase polyprotein 1ab, papain-like protease (rep, Severe acute respiratory syndrome coronavirus 2, UniProt P0DTD1)
Matrix protein 2 S31N: Matrix protein 2 (Influenza A virus, UniProt P0DOF5, S31N)
rep nsp12 RdRp: Replicase polyprotein 1ab, nsp12 RdRp (rep, Severe acute respiratory syndrome coronavirus 2, UniProt P0DTD1)
rep nsp14: Replicase polyprotein 1ab, nsp14 (rep, Severe acute respiratory syndrome coronavirus 2, UniProt P0DTD1)
COc1ccc(O)cc1OC  activity (rep papain-like protease; concentration not given, C111S mutant; baseline: positive control): 16.5%
CC(C)Nc1nc2cc(Cl)c(Cl)cc2n1[C@H]1O[C@@H](CO)[C@H](O)[C@@H]1O  IC100 (SARS-CoV-2; cytopathic effect; Vero C1008, Omicron BA.1; 48 h): 7.99 ± 0.28 µM
CNC12CC3CC(CC(C3)O1)C2  inhibition (Matrix protein 2 S31N; concentration not given, pH 5.5, cell-based): 0%
SLVAVTAAQSTIEEQAKTFLDKFA  relative binding (SARS-CoV-2 spike RBD; peptide spot array; peptide; concentration not given; baseline: wild-type ACE2 peptide): 3.37
COc1cc(N2CCC(N3CCN(C)CC3)CC2)ccc1Nc1ncc(Cl)c(Nc2ccccc2P(C)(C)=O)n1  BLI response (rep nsp12 RdRp; binding, biolayer interferometry; concentration not given): 0 nm
Cl.NC12C3CCC4C3C3C(CCC31)C42  inhibition (Matrix protein 2 S31N; concentration not given, pH 5.5, cell-based): 0%
CCC(CC)[C@H](NC(C)=O)[C@@H]1[C@H](O)[C@@H](C(=O)O)C[C@H]1N=C(N)N  IC50 (neuraminidase (Influenza B virus, UniProt A0A1S5RAG6, I221V)): 4.8 ± 0.9 nM
CCC(CC)COC(=O)[C@H](C)N[P@](=O)(OC[C@H]1O[C@@](C#N)(c2ccc3c(N)ncnn23)[C@H](O)[C@@H]1O)Oc1ccccc1  EC90 (SARS-CoV-2; viral replication; Vero, Gamma): 800 ± 100 nM
Nc1ncnc2c1ncn2[C@@H]1O[C@H](CO)[C@@H](O)[C@@H]1O  EC50 (SARS-CoV-2; infectious virus yield; Vero C1008, Omicron BA.1; 48 h): 3210 ± 120 nM
Nc1nc2c(ncn2[C@@H]2O[C@H](COP(=O)(O)OP(=O)(O)OP(=O)(O)OC[C@H]3O[C@@H](n4cnc5c(=O)[nH]c(N)nc54)[C@H](O)[C@@H]3O)[C@@H](O)[C@H]2O)c(=O)[nH]1  ΔTm (rep nsp14; thermal shift; 500 µM): 0.9 °C
N#CCC1(n2cc(-c3ncnc4[nH]ccc34)cn2)CN(C2CCN(C(=O)c3ccnc(C(F)(F)F)c3F)CC2)C1  BLI response (rep nsp12 RdRp; binding, biolayer interferometry; concentration not given): -0.03 nm
N#C[C@@]1(n2ccc(N)nc2=O)O[C@H](CO)[C@@H](O)[C@H]1O  EC50 (SARS-CoV-2 Omicron; viral replication; Calu-3): 100 ± 50 nM
Cc1ccc(NS(=O)(=O)c2cccc(C(=O)NC3CCN(c4ncnc5[nH]cnc45)CC3)c2)cc1  inhibition (rep nsp14; 200 µM): 85.2%
Cc1ccc(-c2ccc3c(ccc4sc5c(c43)NC[C@@H](C)NC5=O)n2)cn1  activity (rep papain-like protease; concentration not given, C111S mutant; baseline: positive control): 18.1%

A few entries again (series 1):
Cc1cccn2cc(C(=O)N3CCCCC3CCc3ccccn3)nc12 (stereo not shown): 100%
Cc1ccc(N2N=C(C(=O)NCc3ccccc3F)S(=O)(=O)c3cccnc32)cc1: 82%
Cc1cccc(-c2nccc(Nc3ccc(C(=O)N4CCN(Cc5ccccc5)CC4)cc3)n2)c1: 56%
CCOC(=O)c1cnc(S/C=C/C(=O)c2ccc(C)cc2)nc1N: 75%
